Measurements of several laboratories.
Lines come from different studies, so protocols differ.

SMILES = CC1(C)CC[C@]2(C(=O)O[C@@H]3O[C@H](CO)[C@@H](O)[C@H](O)[C@H]3O)CC[C@]3(C)C(=CC[C@@H]4[C@@]5(C)CC[C@H](O[C@@H]6O[C@H](C(=O)O)[C@@H](O)[C@H](O)[C@H]6O)C(C)(C)[C@@H]5CC[C@]43C)[C@@H]2C1; tested on = Spike glycoprotein (Severe acute respiratory syndrome coronavirus 2, UniProt P0DTC2); assay = binding, BLI; measurement = Kd; value = 90.4 µM
SMILES = CC1=C(C(=O)N2CCC(C(=O)Nc3ccc(-c4cccc(C)c4)cc3)CC2)OCCO1; tested on = Lassa mammarenavirus; assay = viral replication; system = Huh-7; setting = 10 µM, 72 h; measurement = remaining activity; value = 42%
SMILES = CCOC(=O)CN[C@@H](C(=O)N1CC[C@H]1C(=O)NCc1ccc(/C(N)=N\O)cc1)C1CCCCC1; tested on = Replicase polyprotein 1ab, main protease (rep, Severe acute respiratory syndrome coronavirus 2, UniProt P0DTD1); assay = reporter gene (Gaussia luciferase), inhibitor; setting = 20 µM; measurement = inhibition; value = 1.36%
SMILES = CC[C@H](C)[C@H](NC(=O)[C@H](CC(C)C)NC(=O)[C@H](Cc1c[nH]c2ccccc12)NC(=O)[C@H](CCC(N)=O)NC(=O)[C@@H](NC(=O)[C@H](Cc1ccccc1)NC(=O)[C@H](C)NC(=O)[C@H](CCCCNC(=O)COCCOCCNC(=O)COCCOCCNC(=O)CC[C@H](NC(=O)CCCCCCCCCCCCCCCCCCC(=O)O)C(=O)O)NC(=O)[C@H](CCC(N)=O)NC(=O)[C@H](C)NC(=O)[C@@H](NC(=O)[C@H](CCCCN)NC(=O)[C@H](CC(=O)O)NC(=O)[C@H](CC(C)C)NC(=O)C(C)(C)NC(=O)[C@@H](NC(=O)[C@H](CO)NC(=O)[C@H](Cc1ccc(O)cc1)NC(=O)[C@H](CC(=O)O)NC(=O)[C@H](CO)NC(=O)[C@@H](NC(=O)[C@H](Cc1ccccc1)NC(=O)[C@@H](NC(=O)CNC(=O)[C@H](CCC(=O)O)NC(=O)C(C)(C)NC(=O)[C@@H](N)Cc1ccc(O)cc1)[C@@H](C)O)[C@@H](C)O)[C@@H](C)CC)[C@@H](C)CC)C(C)C)C(=O)N[C@@H](C)C(=O)NCC(=O)NCC(=O)N1CCC[C@H]1C(=O)N[C@@H](CO)C(=O)N[C@@H](CO)C(=O)NCC(=O)N[C@@H](C)C(=O)N1CCC[C@H]1C(=O)N1CCC[C@H]1C(=O)N1CCC[C@H]1C(=O)N[C@@H](CO)C(N)=O; assay = refers to: Dizziness; system = healthy subjects; setting = 5/5/8/10 mg titrated, multiple ascending dose; measurement = subjects with adverse events; value = 0%
SMILES = Cc1ccc(CN2CCN(c3ncnc4ccccc34)CC2)o1; tested on = Lassa mammarenavirus; assay = viral replication; system = Huh-7; setting = 10 µM, 72 h; measurement = remaining activity; value = 52%
SMILES = CCOC(=O)Nc1ccc(NCc2ccc(F)cc2)nc1N; tested on = SARS-CoV-2; assay = viral replication, high-content imaging screen; setting = cell-based; measurement = EC50; value = > 100 µM
SMILES = CCc1c(C(=O)C(N)=O)c2c(OCC(=O)O)cccc2n1Cc1ccccc1; tested on = Daboia russelii; system = C2C12; setting = 100 µM, added: Daboia russelii venom KL; how to read = baseline: venom alone; measurement = viability difference; value = -64.1%
SMILES = CC1CCN(CCCNC(=O)c2cc(Sc3ccc(F)cc3)nc3ccccc23)CC1; tested on = SARS-CoV-2; assay = cytopathic effect; system = USA_WA1/2020; setting = retest 8-point; measurement = maximum response; value = 84.4%
SMILES = O=C1NCCCOc2cccc(c2)C2c3ccc(cc3CCN2Cc2ncc[nH]2)Oc2ccc(O)c1c2 (stereo not shown); tested on = Lassa mammarenavirus; assay = viral replication; system = Huh-7; setting = concentration not given; measurement = Emax; value = 93.9%
SMILES = COCCCNC(=O)C1CCN(Cc2cc3ccccc3n2Cc2cccc(Cl)c2)CC1; tested on = SARS-CoV-2; assay = cytopathic effect; system = USA_WA1/2020; setting = round 2, 5-point; measurement = maximum response; value = 44.9%
SMILES = Cn1cnc(Cn2c(=O)[nH]/c(=N\c3cc4cn(C)nc4cc3Cl)n(Cc3cc(F)c(F)cc3F)c2=O)n1; system = human, severe renal impairment; setting = oral, 375 mg, hypertriglyceridaemia TEAE, Moderate severity; measurement = patients with adverse event; value = 0%
SMILES = Cc1cc(C)cc(-c2ccc(CN3CCCC3C(=O)NCc3cccc(F)c3)cc2)c1 (stereo not shown); tested on = SARS-CoV-2; assay = cytopathic effect; system = USA_WA1/2020; setting = retest, 8-point, duplicates; measurement = maximum response; value = 18.1%
SMILES = Nc1ncnc2c([C@@H]3N[C@H](CO)[C@@H](O)[C@H]3O)c[nH]c12; tested on = Marburg virus; system = HeLa, Musoke; setting = 25 µM, 1 h; measurement = viral RNA copies; value = 882000 copies/mL

Some of these lines once more:
SMILES = CC1=C(C(=O)N2CCC(C(=O)Nc3ccc(-c4cccc(C)c4)cc3)CC2)OCCO1; tested on = Lassa mammarenavirus; assay = viral replication; system = Huh-7; setting = 10 µM, 72 h; measurement = remaining activity; value = 42%
SMILES = CCOC(=O)CN[C@@H](C(=O)N1CC[C@H]1C(=O)NCc1ccc(/C(N)=N\O)cc1)C1CCCCC1; tested on = Replicase polyprotein 1ab, main protease (rep, Severe acute respiratory syndrome coronavirus 2, UniProt P0DTD1); assay = reporter gene (Gaussia luciferase), inhibitor; setting = 20 µM; measurement = inhibition; value = 1.36%
